Measurements of several laboratories.
Each line is one published result; not all experiments were run side by side.
Target: Serine/threonine-protein kinase pim-3 (PIM3, Homo sapiens, UniProt Q86V86)

Structure (SMILES) = Cc1cccc(-c2ccc3nc(NC(=O)C4CCOCC4)nn3c2)c1; test = enzyme activity, Dundee kinase panel; setting = 10 µM; endpoint = remaining activity; result = 84%
Structure (SMILES) = O=C(Cc1ccc(OCc2ccccc2)cc1)NC1(C(=O)O)CCN(C(=O)c2ccc(-c3cccc(Cl)c3)cc2)CC1; test = enzyme activity, inhibitor; setting = 10 µM; endpoint = activity vs control; result = 87%
Structure (SMILES) = CNC(=O)C[C@H](Cc1ccc(C#N)cc1)NC(=O)c1cc(-c2ccc(CN[C@H](C)c3ccc(C)cc3)o2)ccc1Cl; test = enzyme activity, inhibitor; setting = 1 µM; endpoint = activity vs control; result = 74%
Structure (SMILES) = Nc1nc(Nc2ccccc2)sc1C(=O)c1ccccc1; test = enzyme activity, inhibitor; setting = 10 µM; endpoint = remaining activity; result = 32%
Structure (SMILES) = COc1cc(Nc2nccc(-c3cnn4nc(OC)ccc34)n2)cc(C(F)(F)F)c1; test = binding, competition with immobilised ligand; setting = 1 µM; endpoint = remaining binding; result = 93%
Structure (SMILES) = C=C1CCCCCCCCCC(CO)C1=O (stereo not drawn); test = cell-free assay, competition with immobilised ligand; setting = 10 µM; endpoint = remaining binding; result = 100%
Structure (SMILES) = COc1c(Cl)cccc1Nc1c(-c2ccncc2C#C[C@@]2(C)CCCN2C(=O)/C=C/CN(C)C)[nH]c2c1C(=O)NCC2; test = binding, competition with immobilised ligand; setting = 3 µM; endpoint = remaining binding; result = 100%
Structure (SMILES) = COc1ccc(NC(=O)Nc2ccc3c(c2)C(=O)N(C(C)CO)CC(C)C(CN(C)Cc2ccc4c(c2)OCO4)O3)cc1 (stereo not drawn); test = kinase activity, KinaseProfiler; setting = 0.03 µM, species human; scale = baseline: control; endpoint = remaining activity; result = 103%
Structure (SMILES) = CCN1CCN(Cc2ccc(C(=O)Nc3ccc(C)c(NCc4cnc5[nH]ccc5c4OC)c3)cc2C(F)(F)F)CC1; test = binding, competition with immobilised ligand; setting = 1 µM; endpoint = remaining binding; result = 100%
Structure (SMILES) = C=CC(=O)N1Cc2nc(-c3cc(-c4cc(Cl)cnc4Cl)c(F)cc3F)n(-c3ccncn3)c2C1; test = cell-free assay, inhibitor; setting = 1 µM; endpoint = inhibition; result = 7.6%
Structure (SMILES) = NC(=O)[C@@H](O)C[C@H]1CCc2sc3ncnc(O[C@H]4CC[C@H](N5CCOCC5)CC4)c3c21; test = enzyme activity, inhibitor; setting = 10 µM; endpoint = inhibition; result = 19%
Structure (SMILES) = CNC1C[S+]2CC[S+]3CC[S+](C1)[Ru-4]321([N]=C=S)[n]2c3ccc(OC)cc3c3c4c(c5cc(F)c[n+]1c5c32)C(=O)NC4=O (stereo not drawn); test = KinomeScan; setting = 0.1 µM; scale = baseline: untreated; endpoint = remaining binding; result = 5.6%
Structure (SMILES) = Cc1cccc(-c2ccc3nc(NC(=O)C4CCCO4)nn3c2)c1 (stereo not drawn); test = enzyme activity, Dundee kinase panel; setting = 10 µM; endpoint = remaining activity; result = 91%
Structure (SMILES) = CCn1cc(C(=O)O)c(=O)c2c(N)c(F)c(NC3CCCCC3)cc21; test = kinase activity; setting = 0.1 µM, with: ATP at Km; endpoint = inhibition; result = 54.7%
Structure (SMILES) = Nc1ncc(-c2cc(-c3cnn(CC(F)(F)F)c3)ncc2F)nc1C(=O)NC1CNCC(F)C1 (stereo not drawn); test = enzyme activity; setting = 1 µM; scale = baseline: DMSO control; endpoint = remaining activity; result = 46.1%
Structure (SMILES) = C=CC(=O)N1CCCC(n2c(=O)c3ncccc3n(Cc3ccc(Oc4ccccc4)cc3)c2=O)C1 (stereo not drawn); test = cell-free assay, competition with immobilised ligand; setting = 1 µM; endpoint = remaining binding; result = 93%
Structure (SMILES) = C=CC(=O)Nc1cccc(-c2cnc3[nH]cc(C(=O)NC(C)(C)C)c3n2)c1; test = enzyme activity, inhibitor; setting = 0.1 µM; endpoint = inhibition; result = -1%
Structure (SMILES) = CC(C)=CC1OC(C)(C)C2C=C3C(=O)C(Cl)=CC(O)C3C3C(O)C4OC4C(=O)C132 (stereo not drawn); test = cell-free assay, competition with immobilised ligand; setting = 10 µM; endpoint = remaining binding; result = 95%
Structure (SMILES) = Cc1cccc(O[C@H]2CCC[C@@H](C(C)CNCc3ccncc3)C2)c1 (relative stereo); test = enzyme activity, inhibitor; setting = 1 µM; endpoint = inhibition; result = 0%
Structure (SMILES) = CN1CCN(Cc2ccc(NC(=O)c3cccc(C#Cc4cnc(N)c5ncccc45)c3)cc2C(F)(F)F)CC1; test = cell-free assay, competition with immobilised ligand; setting = 50 nM; endpoint = remaining binding; result = 81%
Structure (SMILES) = COc1c(OCCCN2CCOCC2)ccc2c1N=C(NC(=O)c1cnc(N)nc1)N1CCN=C21; test = kinase activity, inhibitor; setting = 1 µM; scale = baseline: untreated control; endpoint = remaining activity; result = 103%

Some of these lines once more:
Structure (SMILES) = CNC(=O)C[C@H](Cc1ccc(C#N)cc1)NC(=O)c1cc(-c2ccc(CN[C@H](C)c3ccc(C)cc3)o2)ccc1Cl; test = enzyme activity, inhibitor; setting = 1 µM; endpoint = activity vs control; result = 74%
Structure (SMILES) = Nc1nc(Nc2ccccc2)sc1C(=O)c1ccccc1; test = enzyme activity, inhibitor; setting = 10 µM; endpoint = remaining activity; result = 32%
Structure (SMILES) = COc1cc(Nc2nccc(-c3cnn4nc(OC)ccc34)n2)cc(C(F)(F)F)c1; test = binding, competition with immobilised ligand; setting = 1 µM; endpoint = remaining binding; result = 93%
